Measurements gathered from unrelated publications.
Every numbered part comes from another study and shows a few of its results, in no order. Changes are numbered by the printed parent chain.

Set 1
Target: Interferon regulatory factor 7, full length, phosphomimetic (IRF7, Homo sapiens, UniProt Q92985, residues 1-503, S471D/S472D/S475D/S476D/S477D/S483D/S484D/S487D)
Sequence of UniProt Q92985 (whole entry, unmodified, looked up): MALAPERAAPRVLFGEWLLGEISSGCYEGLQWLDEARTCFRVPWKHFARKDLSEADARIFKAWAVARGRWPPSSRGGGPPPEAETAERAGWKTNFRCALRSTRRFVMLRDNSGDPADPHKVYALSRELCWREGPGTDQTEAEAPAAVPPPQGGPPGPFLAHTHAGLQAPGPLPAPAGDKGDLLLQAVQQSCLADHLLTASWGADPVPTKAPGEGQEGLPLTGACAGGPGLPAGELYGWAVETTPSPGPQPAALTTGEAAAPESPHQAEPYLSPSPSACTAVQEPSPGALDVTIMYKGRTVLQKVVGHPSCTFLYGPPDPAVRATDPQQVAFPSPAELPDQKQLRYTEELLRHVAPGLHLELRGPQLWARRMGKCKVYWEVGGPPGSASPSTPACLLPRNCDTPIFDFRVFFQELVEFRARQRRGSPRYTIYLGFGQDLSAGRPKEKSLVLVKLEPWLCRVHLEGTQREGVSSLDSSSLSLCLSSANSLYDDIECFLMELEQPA
Method: protein-binding microarray
Molecule type: double-stranded DNA, one strand shown
Matrix: in vitro
Concentration: 2200 nM top
Notes: 60-bp whole probe
Together with: salmon DNA 0.4 mg/ml
Relative to: random background probes
Reading: higher = stronger binding
Endpoint: fitted relative affinity
Constant ends, left off below: GCCTAGCAC … GTCTTGATTCGCTTGACGCTGCTG
GACAATTTCGGGACTGGAGACGTGCTA: 1.44 z-score
TCATCTTTCACTGGTCCTACTGTGCTA: 2.09 z-score
TTACGTTTCGGTTCCGGTTAGTGCTAG: 9.81 z-score
TTAGATCTCAGTGTCGATTAGTGCTAG: 0.0314 z-score
TTAGAAATTTCTTTCTAATTGTGCTAG: 0.696 z-score
GACGATATCAGACTGCAGACGTGCTAG: 0.342 z-score
TTAGATATCAGTCTCGACTAGTGCTAG: -0.0721 z-score
GACGGTTTCGGTATCGGGACGTGCTAG: 8.09 z-score
GACGGTATCGGTACTGGGGACGTGCTA: -0.21 z-score
TTAGGACTGGATTATCGGTTAGTGCTA: 0.0913 z-score
GACGGACCGCTTATCCTGACGTGCTAG: 0.112 z-score
GACGGACTGGGAATGGGGACGTGCTAG: -0.868 z-score
GGGATAAGGACAGACACCATGTGCTAG: -0.7 z-score
TTAGGTTTCGGTAACGGTTAGTGCTAG: 2.92 z-score
CACGGTTTCGGTTTCGGGACGTGCTAG: 15.4 z-score
GACGGTTTCGGTCCCGGGACGTGCTAG: 5.43 z-score
GACGGTCGCCTACTGCTGACGTGCTAG: -0.248 z-score
TTAGATCTCAGAGTGGATTAGTGCTAG: -0.22 z-score

Set 2
Target: Ras GTPase-activating protein-binding protein 1, C-terminal RGG region (G3BP1, Homo sapiens, UniProt Q13283)
Sequence of UniProt Q13283 (whole entry, looked up): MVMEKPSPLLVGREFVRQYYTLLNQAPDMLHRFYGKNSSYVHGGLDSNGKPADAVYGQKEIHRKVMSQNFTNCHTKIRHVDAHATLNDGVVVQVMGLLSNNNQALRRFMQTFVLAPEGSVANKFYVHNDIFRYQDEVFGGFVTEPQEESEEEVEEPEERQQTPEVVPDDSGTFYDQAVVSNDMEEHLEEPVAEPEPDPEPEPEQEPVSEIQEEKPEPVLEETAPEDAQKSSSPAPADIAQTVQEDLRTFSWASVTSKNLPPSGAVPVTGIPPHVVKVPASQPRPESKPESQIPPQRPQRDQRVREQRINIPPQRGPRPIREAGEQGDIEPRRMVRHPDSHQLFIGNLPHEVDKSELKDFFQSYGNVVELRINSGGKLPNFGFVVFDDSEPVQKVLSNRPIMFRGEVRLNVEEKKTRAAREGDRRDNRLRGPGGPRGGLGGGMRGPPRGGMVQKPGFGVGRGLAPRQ
Method: RNA Bind-n-Seq
Molecule type: RNA
Matrix: in vitro
Concentration: 1 µM
Notes: whole 134-nt RNA, ends assumed
Together with: 150 mM KCl
Relative to: input library
Reading: higher = stronger binding
Endpoint: log2 enrichment
Constant ends, left off below: GGGAGUUCUACAGUCCGACGAUC … UGGAAUUCUCGGGUGUCAAGG
CCUCAAGUCCUGUGCUACACAUCGUAUGUACCGAAUCGGAAGGAAGGGGAAGGAAAGUAUUAUGUUACGCCGUUCGGAUCUGCACUUCCA: -1.37
UCCUGUGCUACACAUCGUAUGUACCGAAUCGGGUUUUUGGGUUUUUGGGUUUUUUUGGGAAAGUAUUAUGUUACGCCGUUCGGAUCUGCA: -0.277
CAAGUCCUGUGCUACACAUCGUAUGUACCGAAUCGGUUUGGGGUUUGGGGUUUGGAAAGUAUUAUGUUACGCCGUUCGGAUCUGCACUUC: -0.741
ACCAUGCAGAUGGGCAUCUUUGGGAAGUGGGGCAAGGGGGGGAUAGGGAGGGGGGUAACACUUUGGGAACAGGUGGUCCCAGGUCGUUUC: -0.947
UAACUUUAGACGAGGAUCUGAUGGAUAUGGCAGUGGACGUGGAUUUGGGGAUGGCUAUAAUGGGUAUGGAGGAGGACCUGGAGGUGGCAA: -1.68
CCUGUGCUACACAUCGUAUGUACCGAAUCAAAUUUUUUUAAAUUUUUUUAAACCCCCAAAAAAGUAUUAUGUUACGCCGUUCGGAUCUGC: -0.877
CCUCAAGUCCUGUGCUACACAUCGUAUGUACCGAAUCGGCCGGCCGGGGCCGGAAAGUAUUAUGUUACGCCGUUCGGAUCUGCACUUCCA: -1.01
CACAGACAACACGCAAACACACAGACACAGAGGGAAGGGGUUGGGAUGGGGACAGGGUGCACAGCAGGGCGGGGUAGGACCCCAGCCCCU: -0.342
CUCAAGUCCUGUGCUACACAUCGUAUGUACCGAAUCGGGGAAGGGAAGGAAGGAAAGUAUUAUGUUACGCCGUUCGGAUCUGCACUUCCA: -1.18

Set 3
Target: Phosphate system positive regulatory protein PHO4, full length, GST-tagged (PHO4, Saccharomyces cerevisiae, UniProt P07270, residues 1-312)
Sequence of UniProt P07270 (whole entry, looked up): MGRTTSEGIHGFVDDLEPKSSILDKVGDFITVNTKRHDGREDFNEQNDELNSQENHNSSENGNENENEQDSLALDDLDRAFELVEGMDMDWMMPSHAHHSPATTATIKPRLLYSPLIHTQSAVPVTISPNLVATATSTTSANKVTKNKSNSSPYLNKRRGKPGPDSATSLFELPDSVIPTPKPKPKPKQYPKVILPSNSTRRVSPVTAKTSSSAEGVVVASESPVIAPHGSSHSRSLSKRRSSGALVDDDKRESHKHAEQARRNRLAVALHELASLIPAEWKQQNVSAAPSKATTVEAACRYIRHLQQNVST
Method: competition protein-binding microarray
Molecule type: double-stranded DNA, one strand shown
Matrix: in vitro
Concentration: 2 µM
Notes: whole 60-bp probe, lowest competitor level
Together with: Cbf1 competitor, 0.05 µM
Reading: higher = stronger binding
Endpoint: fluorescence intensity
Constant ends, left off below: … GTCTTGATTCGCTTGACGCTGCTG
CGTCCTAGTGATTGGAAAGTGGGTGCCATGAGGAAG: 6890 a.u.
AATGTGTCGTTCGAACTCGTGGTTACGTCGCCTGGA: 8890 a.u.
CGTCCTAGTGATTGCCCTGTGGGTGCCATGAGGAAG: 7050 a.u.
CGTCCTAGTGATTGTCACAGAACTTCCATGAGGAAG: 4980 a.u.
GATATTGTACGTATTCACGTGTGAATTGCTAAAGAG: 16600 a.u.
CACAATGAAAAGGTCCACGTGGTGGGGACTGAGGCC: 18700 a.u.
GTCTTGTCTCATTATCACGTGTTTTTCCCCACTTCA: 14400 a.u.
AAGAATCTAAGCCAACACGCACAATAGACTCGAATG: 7200 a.u.
TCCAACAAATAAAGTTCCGTGATGGTTTAATGGTCA: 3380 a.u.
GACAGTCTTAGTGTAGACGTGACGGTTCTTGGTGGC: 4760 a.u.
AAAGCGGTAATTTTTCACGTGCAGTCAAATATCTAT: 14100 a.u.
CAAGCATAGCGTATACACGTGCAAACACAAGCATAC: 17200 a.u.
CTTCTGTAAATTTGGGATGTGGGTGGACGCGCCCCG: 4560 a.u.
TCAATCTTTGTTCGTCAGGTGGGATACCTTCCTTGT: 4590 a.u.
GTATTTTTTGTTTTTCACGTGATGGAATCGGCTTCG: 13700 a.u.
CTAACGAAGGTTTGTCGTGTGGGTGACAAGCCAAGT: 5370 a.u.

Set 4
Target: Histone acetyltransferase KAT6A, winged helix 2, GST fusion (KAT6A, Homo sapiens, UniProt Q92794, residues 85-181)
Method: protein binding microarray
Molecule type: double-stranded DNA, one strand shown
Matrix: in vitro
Concentration: not given
Notes: 8-mer, flanks averaged, mean of 2 arrays, mostly near background
Relative to: not given
Reading: higher = stronger binding
Endpoint: E-score
Construct (chain): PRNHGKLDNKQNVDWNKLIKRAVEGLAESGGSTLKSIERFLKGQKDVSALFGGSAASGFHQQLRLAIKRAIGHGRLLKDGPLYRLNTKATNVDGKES
ATGCCATG: 0.058
TCTAGCAA: 0.0961
GGGATACA: -0.115
CGCCGAGC: 0.206
CAGAGCCC: 0.145
GAGACACC: -0.0426
CCCGCACA: 0.123
GCAAGAGA: 0.07
CCAGTAAG: -0.117
CAACCCAC: 0.0637
TAGGCAAA: 0.00123
AGGCGATA: -0.022
ACAAGCTA: -0.0906
GGGCACAA: 0.0287
TAATGTGA: 0.0272
GCCGAATA: -0.0271
GCAAAAAC: -0.0155

Set 5
Target: CCNE2, cyclin fold, Cln2 fusion (human)
Method: yeast growth competition, sequencing
Matrix: yeast
Notes: weak parent motif
Relative to: not given
Reading: higher = stronger binding
Endpoint: normalised enrichment score
Parent: MASTL docking peptide (human); PMIAKNLMCELDE
PMIAKNLWCELDE [M8W]: -0.00011
PMIAKNLMCECDE [L11C]: -0.312
PMEAKNLMCELDE [I3E]: 0.0596
PMIAKNVMCELDE [L7V]: -0.29
PMIAKNLTCELDE [M8T]: -0.339
PMIAKNLMPELDE [C9P]: -0.0622
PMIAKNLMCETDE [L11T]: -0.247
PMIAKNLQCELDE [M8Q]: -0.265
PMIAKNLYCELDE [M8Y]: -0.337
PMIAKYLMCELDE [N6Y]: -0.00503
PMIYKNLMCELDE [A4Y]: -0.252
PMIAKNLPCELDE [M8P]: -0.187

Set 6
Target: ABI1, truncated, D143A, DHFR fusion (Arabidopsis thaliana)
Method: DHFR PCA, deep sequencing
Matrix: yeast
Notes: methotrexate growth selection, single substitutions
Together with: (+)-ABA 1.4 µM
Relative to: wild-type fitted maximum
Reading: higher = stronger binding
Endpoint: relative binding score
Parent: PYL1, truncated, DHFR fusion (Arabidopsis thaliana); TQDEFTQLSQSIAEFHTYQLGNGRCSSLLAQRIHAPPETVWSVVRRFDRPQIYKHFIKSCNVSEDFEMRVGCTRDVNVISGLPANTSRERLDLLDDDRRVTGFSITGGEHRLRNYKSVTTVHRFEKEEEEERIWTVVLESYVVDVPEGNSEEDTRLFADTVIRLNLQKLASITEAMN
V76A: 1.33%
T160S: 10.2%
E128D: 74.9%
F157W: 9.43%
M68S: 1.85%
Y115C: 3.55%
T86C: 59.1%
D95A: 0.719%
F124Q: 23.6%
W41A: -8.77%
I12A: -4.41%
Y141M: 1.83%
